Assay results from different studies.
Lines come from different studies, so protocols differ. Values after ≈ are worked out from the molar mass of the structure shown.

| SMILES | organism | test | test system | setting | how to read | measurement | value |
| --- | --- | --- | --- | --- | --- | --- | --- |
| COC(=O)[C@@H](N)Cc1ccc(OP2(=O)CO[C@@H](Cn3ccc(N)nc3=O)CO2)cc1 (stereo partly shown) | human cytomegalovirus | viral replication |  |  |  | IC50 | 230 nM |
| N=C(N)NCCC[C@H](NC(=O)[C@H](Cc1c[nH]c2ccccc12)NC(=O)[C@H](CCCNC(=N)N)NC(=O)[C@@H](N)Cc1c[nH]c2ccccc12)C(=O)N[C@@H](Cc1ccccc1)C(=O)N[C@@H](CCC(N)=O)C(=O)N[C@@H](Cc1ccccc1)C(=O)N[C@@H](CCC(N)=O)C(=O)N[C@@H](Cc1ccccc1)C(=O)N[C@@H](CCCCN)C(N)=O | Bacillus subtilis |  |  |  |  | MBC | 0.035 µmol/mL (≈ 53.5 µg/mL) |
| CC1(C)SC2C(NC(=O)C(NC(=O)C3=C(O)C(Cc4ccsc4)NC3=O)c3ccccc3)C(=O)N2C1C(=O)O (stereo not shown) | Escherichia coli | broth microdilution | isolate IU, CTX-M-14, TEM-1 | no clavulanic acid |  | MIC | > 200 µg/mL |
| CC[C@H](C)[C@H](NC(=O)[C@H](C)NC(=O)[C@H](CCCCN)NC(=O)[C@H](CC(C)C)NC(=O)[C@H](C)NC(=O)[C@@H](NC(=O)[C@H](Cc1c[nH]cn1)NC(=O)[C@H](CC(C)C)NC(=O)[C@@H](NC(=O)[C@@H](NC(=O)[C@H](CCCCN)NC(=O)[C@H](C)NC(=O)[C@H](C)NC(=O)[C@H](CO)NC(=O)[C@H](CCCCN)NC(=O)[C@H](Cc1ccccc1)NC(=O)[C@@H](NC(=O)[C@H](CCCCN)NC(=O)[C@H](CC(C)C)NC(=O)[C@H](Cc1ccccc1)NC(=O)[C@H](CO)NC(=O)[C@H](CCCCN)NC(=O)[C@H](Cc1c[nH]c2ccccc12)NC(=O)[C@H](CCCCN)NC(C)=O)[C@@H](C)O)[C@@H](C)O)C(C)C)[C@@H](C)O)C(=O)N[C@@H](CO)C(=O)N[C@@H](CO)C(N)=O | Klebsiella pneumoniae |  |  | 80 strains |  | MIC90 | 8 µg/mL (≈ 2.73 µM) |
| Cn1c(=O)ccc2ccc(F)c(CCNC[C@H]3CN(c4cnc5c(n4)NC(=O)CO5)C(=O)O3)c21 | Haemophilus influenzae |  |  |  |  | MIC50 | < 0.015 µg/mL |
| CS(=O)(=O)CCCn1c(Cn2c(=O)n(CC(F)(F)F)c3ccncc32)cc2cc(Cl)ccc21 | respiratory syncytial virus | RT-qPCR | hospitalized infants 1-24 months, nasal swab | oral, 8 mg/kg daily, day 28, cohort 6-24 months | baseline: baseline | LS mean viral load change | -4.38 log10 copies/mL |
| CCCCc1c([N+](=O)[O-])oc2ccc3ccccc3c12 | Mycobacterium marinum | REMA | ATCC BAA-535 |  |  | MIC90 | 0.25 µg/mL (≈ 0.928 µM) |
| Cl.N=C(CC(O)c1cc2c(F)cc(F)cc2c2cc(C(F)(F)F)ccc12)Nc1ccc(Br)cc1 (stereo not shown) | Plasmodium berghei | Peters suppressive test | ANKA, infected mice | oral, 4 x 3 mg/kg, day 4 | baseline: untreated control | parasitemia reduction | 99.6% |
| CCCCc1ccc(CNc2nc(N(C)C)nc(N(C)C)c2/N=N/c2ccc(Cl)cc2)cc1 | Plutella xylostella | leaf dipping |  | 100 mg/L |  | mortality | 90% |
| Cc1ncc([N+](=O)[O-])n1CCO | Gram-negative bacteria |  |  | concentration not given |  | antibacterial activity | inactive |
| Cc1c2c(nn1C)CSCc1cc(n(C)n1)CSc1cc(c3ccccc3c1)OCCCc1c(C(=O)O)n(C)c3c-2c(Cl)ccc13 | Staphylococcus aureus | label-free proteomics, item: hld | SA113 | concentration not given | baseline: untreated | log2 fold change | -5.24 |
| COC1=CC(c2ccc[nH]2)=N/C1=C\c1[nH]c(Cc2ccc(OC(F)(F)F)cc2)cc1Cc1ccc(OC(F)(F)F)cc1 | Plasmodium berghei | bioluminescence | mice | oral, 20 mg/kg/day, 72 h | baseline: vehicle | parasite load reduction | 98.9% |
| Nc1ncnc2c1ncn2[C@@H]1O[C@@H]2COP(=O)(O)O[C@H]3[C@@H](O)[C@H](n4cnc5c(=O)[nH]cnc54)O[C@@H]3COP(=O)(O)O[C@H]2[C@H]1O | Zika virus | RNA sequencing, item: communication, cell-cell, R-HSA-1500931 | HFF-1 cells | concentration not given, downregulated pathway | baseline: ZIKV-infected untreated cells | fold enrichment | 5.05 |

Excerpt of the above:
| SMILES | organism | test | test system | setting | how to read | measurement | value |
| --- | --- | --- | --- | --- | --- | --- | --- |
| CCCCc1c([N+](=O)[O-])oc2ccc3ccccc3c12 | Mycobacterium marinum | REMA | ATCC BAA-535 |  |  | MIC90 | 0.25 µg/mL (≈ 0.928 µM) |
